Literature values that unrelated publications cite.
Protocols differ between the studies behind these lines.

SMILES | test | test system | setting | half-life [h]
CCCCCCCCc1ccc(CCC(N)(CO)COP(=O)(O)O)cc1 (stereo not shown) |  |  |  | 25
C[C@@H](O)[C@H](NC(=O)OP(=O)(O)OC[C@H]1O[C@@H](n2cnc3c(N)ncnc32)[C@H](O)[C@@H]1O)C(=O)O |  |  | pH 7.5, added: 2 mM Mg2+ | 0.0583
CN1C(=O)C[C@@H](C(=O)N[C@@H](Cc2c[nH]cn2)C(=O)N2CCC[C@H]2C(N)=O)NC1=O | degradation | brain homogenate |  | 1.07
Cc1cn(C2C=CC(COP(=O)(O)OP(=O)(O)O)O2)c(=O)[nH]c1=O (stereo not shown) |  | CEM/0 cell extract |  | 59
Cc1ccccc1-c1cc(N2CC[N+](C)([O-])CC2)ncc1N(C)C(=O)C(C)(C)c1cc(C(F)(F)F)cc(C(F)(F)F)c1 |  | healthy volunteers, plasma | oral, dose not given, netupitant-palonosetron, fasted | 48.9
Cc1cnc(Nc2ccc(C#N)cc2)nc1Nc1c(F)cc(-c2ccc(C#N)cc2)cc1F |  | human liver microsomes |  | 2.3
CC[C@H](C)[C@H](NC(=O)CNC(=O)CNC(=O)c1ccc2c(c1)C(=O)OC21c2ccc(O)cc2Oc2cc(O)ccc21)C(=O)N[C@@H](Cc1ccc(O)cc1)C(=O)N[C@@H](C)C(=O)N[C@@H](C)C(=O)N1CCC[C@H]1C(=O)N(C)[C@@H](Cc1ccccc1)C(=O)N[C@@H](CCCCN)C(=O)N[C@@H](CCCCN)C(=O)N[C@@H](CCCCN)C(=O)N[C@@H](C)C(N)=O |  | cytosolic lysate | 3 mg/mL total protein | 0.323
Cc1ccccc1-c1cc(N2CCNCC2)ncc1N(C)C(=O)C(C)(C)c1cc(C(F)(F)F)cc(C(F)(F)F)c1 |  | healthy volunteers, plasma | oral, dose not given, netupitant-palonosetron, fasted | 82.2
O=C([O-])CN1CCOCCN(CC(=O)[O-])Cc2cccc(n2)C1.[Mn+2] |  |  | pH 6.0, 310 K, added: 25 mM Zn2+ | 11.1
CN1CCN(c2cc(-c3ccccc3CO)c(N(C)C(=O)C(C)(C)c3cc(C(F)(F)F)cc(C(F)(F)F)c3)cn2)CC1 |  | patients, plasma | oral, dose not given, netupitant-palonosetron combination, added: docetaxel 75 to 100 mg/m^2 IV | 80.3
CC(C)(C)C1=CC(=NNC(=O)c2ccncc2)C=C(C(C)(C)C)C1=O |  | mouse liver microsomes |  | < 0.0333
C=C[C@@H]1C[C@]1(NC(=O)[C@@H]1C[C@@H](Oc2cc(-c3ccccc3)nc3cc(OC)ccc23)CN1C(=O)[C@@H](NC(=O)OC(C)(C)C)C(C)(C)C)C(=O)NS(=O)(=O)C1CC1 |  | rat liver microsomes |  | 2.7
O=C([O-])CN(CC(=O)[O-])C1CCCCC1N(CC(=O)[O-])CC(=O)[O-].[Mn+2] (stereo not shown) |  | aqueous solution | pH 7.4, 25 °C, added: Cu(II) | 12.3
